Assay results of several laboratories.
Lines come from different studies, so protocols differ. Several values in a cell are separate wells, animals, samples, runs or records. ± marks the error that the study gave.

Compound	test	system	conditions	scale	quantity	result
O=C(O)CCCOc1ccc(F)cc1-c1cc(-c2ccccc2C(F)(F)F)n(-c2ccccc2)n1		Crl:CD(SD) rats, female, blood	25 µg/kg, 14 days		mean corpuscular haemoglobin concentration	36 g/dL and 36.4 g/dL and 36.1 g/dL
O=c1cc(-c2ccc(O)c(O)c2)oc2cc(O)cc(O)c12		male Sprague-Dawley rat, lean	oral, 100 mg/kg of neohesperidin, 24 to 36 h, after β-glucuronidase/sulfatase hydrolysis		urinary excreted amount, total	109 ± 35.5 ng
CC(C)n1c(C2CCNCC2)nc2c([N+](=O)[O-])c(Br)c(Br)cc21	refers to: Vomiting	AML patients	125 mg		adverse events any grade	24%
N[C@@H]1c2ccccc2OC12CCN(c1cnc3c(N4CCCc5ncccc54)n[nH]c3n1)CC2		patients advanced metastatic solid tumours	oral, 60 mg once daily, RP2D expansion phase		TEAE leading to death	0%
COc1cc2c(Oc3ccc4[nH]c(C)cc4c3F)ccnc2cc1OCC1(N)CC1		paediatric recurrent refractory sarcoma	8 mg		bone pain incidence	25%
CN1CC[C@@H](c2c(O)cc(O)c3c(=O)cc(-c4ccc(C(F)(F)F)cc4Cl)oc23)[C@@H]1CO	refers to: Hypotension	relapsed B-cell malignancies or AML	oral, 50 mg, grade 3-4, continuous dosing		patients with adverse event	0%
COc1cccc(Oc2ccccc2NC(=O)CNC(=O)c2cccc3ccccc23)c1		esterase-deficient SCID mice, male	oral, 40 mg/kg/day, 14 days, toxicity study		serum globulin	2.4 g/dL and 2.3 g/dL
C1=Cc2nc1cc1ccc([n-]1)c(-c1ccccc1)c1nc(cc3ccc([n-]3)c2-c2ccccc2)C=C1.CC(=O)[O-].[Mn+3]	LC-MS/MS	Sprague-Dawley rat, plasma	oral gavage, dose not given, 120 min		mean plasma concentration	48 ng/mL
CC(=O)c1c(C)c2cnc(Nc3ccc(C4CCN(CCS(C)(=O)=O)CC4)cn3)nc2n(C2CCCC2)c1=O		human, dose-escalation trial, plasma	oral, 75 mg twice daily, day 21, multiple doses		Cmax	242 ng/mL
Cn1ncc(-c2nc(N[C@H]3CC[C@H](N)CC3)ncc2Cl)c1CC1CC1	HPLC-MS/MS	patients, plasma	oral, 5 mg, day 5		half-life	18.3 h
CO[C@H]1C[C@@H]2CC[C@@H](C)[C@@](O)(O2)C(=O)C(=O)N2CCCC[C@H]2C(=O)O[C@H]([C@H](C)C[C@@H]2CC[C@@H](OC(=O)NCCOCCOCCOCCOCCOCCOCCOCCOCCC(=O)N3CCc4cc(Cn5nc(-c6ccc7oc(N)nc7c6)c6c(N)ncnc65)ccc4C3)[C@H](OC)C2)C[C@@H](O)[C@H](C)/C=C(\C)[C@@H](O)[C@@H](OC)C(=O)[C@H](C)C[C@H](C)/C=C/C=C/C=C/1C	dose-escalation trial	patients with advanced solid tumours	intravenous, all doses weekly, any grade		maculopapular rash TEAE incidence	19.3%
CC(C)[C@@H]1NC(=O)CNC(=O)[C@H](CC(N)=O)NC(=O)[C@H](CCCNC(=N)N)NC(=O)[C@H](Cc2ccc(O)cc2)NC(=O)[C@H](C(C)C)NC(=O)[C@@H](NC(=O)[C@@H](NC(=O)[C@H](CC(N)=O)NC(=O)[C@H](Cc2c[nH]c3ccccc23)NC(=O)[C@H](C)NC(=O)[C@H](Cc2ccccc2)NC(=O)CN)C(C)C)CSSC[C@@H](C(=O)N[C@@H](Cc2cnc[nH]2)C(=O)N[C@@H](CCCNC(=N)N)C(=O)N[C@@H](CCCNC(=N)N)C(=O)N[C@@H](C)C(=O)N[C@@H](CC(N)=O)C(N)=O)NC(=O)[C@H](C(C)C)NC(=O)[C@H](CCCNC(=N)N)NC1=O	HPLC	mouse mammary gland homogenate	2560 µM, 12.00 h, 37 °C, 50 mg/mL tissue		remaining peptide	34.6% and 36.3% and 40.9%
Brc1ccc(Oc2cc(Br)c(Br)cc2Br)c(Br)c1		cow whole milk	2000 nM	relative to: milk fat over skim milk	milk fat partition ratio	189
C[C@]1(CO)Cc2ncn(-c3ccc(C#N)c(Cl)c3)c2C(=O)O1		human	10 mg single dose		subjects with drug-related headache	0%

Repeated from above:
Compound	test	system	conditions	scale	quantity	result
COc1cccc(Oc2ccccc2NC(=O)CNC(=O)c2cccc3ccccc23)c1		esterase-deficient SCID mice, male	oral, 40 mg/kg/day, 14 days, toxicity study		serum globulin	2.4 g/dL and 2.3 g/dL
CC(C)n1c(C2CCNCC2)nc2c([N+](=O)[O-])c(Br)c(Br)cc21	refers to: Vomiting	AML patients	125 mg		adverse events any grade	24%
